Assay results of several laboratories.
Parts stem from different laboratories: compare values within a part only. Substitutions count along the parent as printed.
Chain of UniProt Q8IW41 (whole entry, looked up): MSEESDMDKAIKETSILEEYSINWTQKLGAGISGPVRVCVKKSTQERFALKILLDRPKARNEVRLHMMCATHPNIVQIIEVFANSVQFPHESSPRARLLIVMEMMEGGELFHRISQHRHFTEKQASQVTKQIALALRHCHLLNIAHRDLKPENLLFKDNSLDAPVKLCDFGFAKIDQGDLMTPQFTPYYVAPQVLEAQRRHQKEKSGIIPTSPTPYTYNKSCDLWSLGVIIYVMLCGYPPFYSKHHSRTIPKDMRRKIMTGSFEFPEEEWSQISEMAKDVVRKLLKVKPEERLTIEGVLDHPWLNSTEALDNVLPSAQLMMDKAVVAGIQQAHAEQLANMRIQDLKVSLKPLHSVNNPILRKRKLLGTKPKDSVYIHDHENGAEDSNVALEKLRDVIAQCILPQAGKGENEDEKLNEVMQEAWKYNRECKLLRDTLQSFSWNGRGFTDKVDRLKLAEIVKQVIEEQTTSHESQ
Chain of UniProt Q15835 (whole entry, looked up): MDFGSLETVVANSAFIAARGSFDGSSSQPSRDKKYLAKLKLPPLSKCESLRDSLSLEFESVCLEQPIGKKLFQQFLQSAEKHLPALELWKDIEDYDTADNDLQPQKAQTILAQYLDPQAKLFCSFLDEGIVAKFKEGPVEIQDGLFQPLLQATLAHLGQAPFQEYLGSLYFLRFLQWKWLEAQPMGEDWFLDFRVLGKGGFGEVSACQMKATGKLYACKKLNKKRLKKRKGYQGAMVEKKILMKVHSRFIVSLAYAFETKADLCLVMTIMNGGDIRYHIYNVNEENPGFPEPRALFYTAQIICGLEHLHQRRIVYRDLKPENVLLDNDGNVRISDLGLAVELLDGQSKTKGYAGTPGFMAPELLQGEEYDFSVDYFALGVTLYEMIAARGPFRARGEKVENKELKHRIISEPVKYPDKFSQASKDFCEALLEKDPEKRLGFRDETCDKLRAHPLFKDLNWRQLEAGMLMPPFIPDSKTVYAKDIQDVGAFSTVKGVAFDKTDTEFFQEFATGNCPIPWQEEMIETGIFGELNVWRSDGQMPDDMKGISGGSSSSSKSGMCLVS

Series 1
Target: vanadate, free oxyanion
Method: microfluidic competitive inhibition
Sample: in vitro, cell-free expressed
Concentration: not given
Setting: derived from inhibition constants, unchanged parent 676 nM
Direction: lower = stronger binding
Parent: PafA, mature enzyme, eGFP fusion (Elizabethkingia meningoseptica, UniProt Q9KJX5); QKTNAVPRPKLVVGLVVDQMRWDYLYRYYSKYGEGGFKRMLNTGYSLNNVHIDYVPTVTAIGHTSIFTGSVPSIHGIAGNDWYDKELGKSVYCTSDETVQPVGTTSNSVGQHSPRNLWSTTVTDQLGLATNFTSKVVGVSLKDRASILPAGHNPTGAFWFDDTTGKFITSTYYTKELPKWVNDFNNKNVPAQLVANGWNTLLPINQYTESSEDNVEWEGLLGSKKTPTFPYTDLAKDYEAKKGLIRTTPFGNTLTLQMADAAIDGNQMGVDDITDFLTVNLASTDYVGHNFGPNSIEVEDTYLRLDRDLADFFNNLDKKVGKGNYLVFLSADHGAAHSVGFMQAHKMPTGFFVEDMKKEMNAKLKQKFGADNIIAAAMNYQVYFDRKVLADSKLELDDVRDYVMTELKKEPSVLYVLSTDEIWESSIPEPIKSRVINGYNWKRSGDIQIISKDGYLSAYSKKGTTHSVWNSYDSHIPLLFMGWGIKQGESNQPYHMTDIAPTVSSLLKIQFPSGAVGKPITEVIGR
Variant | oxyanion analog dissociation constant
K442G | 0.935 µM
S505G | 0.572 µM
A377V | 0.593 µM
M481G | 0.996 µM
L148G | 0.798 µM
K135V | 0.816 µM
V382G | 0.65 µM
T155G | 0.909 µM

Series 2
Target: UDP-N-acetylglucosamine--peptide N-acetylglucosaminyltransferase 110 kDa subunit (OGT, Homo sapiens, UniProt O15294)
Read-out: binding
Method: phage display NGS
Molecule type: peptide
Concentration: concentration not given
Reference: input library
Target sequence (O15294 1-1046): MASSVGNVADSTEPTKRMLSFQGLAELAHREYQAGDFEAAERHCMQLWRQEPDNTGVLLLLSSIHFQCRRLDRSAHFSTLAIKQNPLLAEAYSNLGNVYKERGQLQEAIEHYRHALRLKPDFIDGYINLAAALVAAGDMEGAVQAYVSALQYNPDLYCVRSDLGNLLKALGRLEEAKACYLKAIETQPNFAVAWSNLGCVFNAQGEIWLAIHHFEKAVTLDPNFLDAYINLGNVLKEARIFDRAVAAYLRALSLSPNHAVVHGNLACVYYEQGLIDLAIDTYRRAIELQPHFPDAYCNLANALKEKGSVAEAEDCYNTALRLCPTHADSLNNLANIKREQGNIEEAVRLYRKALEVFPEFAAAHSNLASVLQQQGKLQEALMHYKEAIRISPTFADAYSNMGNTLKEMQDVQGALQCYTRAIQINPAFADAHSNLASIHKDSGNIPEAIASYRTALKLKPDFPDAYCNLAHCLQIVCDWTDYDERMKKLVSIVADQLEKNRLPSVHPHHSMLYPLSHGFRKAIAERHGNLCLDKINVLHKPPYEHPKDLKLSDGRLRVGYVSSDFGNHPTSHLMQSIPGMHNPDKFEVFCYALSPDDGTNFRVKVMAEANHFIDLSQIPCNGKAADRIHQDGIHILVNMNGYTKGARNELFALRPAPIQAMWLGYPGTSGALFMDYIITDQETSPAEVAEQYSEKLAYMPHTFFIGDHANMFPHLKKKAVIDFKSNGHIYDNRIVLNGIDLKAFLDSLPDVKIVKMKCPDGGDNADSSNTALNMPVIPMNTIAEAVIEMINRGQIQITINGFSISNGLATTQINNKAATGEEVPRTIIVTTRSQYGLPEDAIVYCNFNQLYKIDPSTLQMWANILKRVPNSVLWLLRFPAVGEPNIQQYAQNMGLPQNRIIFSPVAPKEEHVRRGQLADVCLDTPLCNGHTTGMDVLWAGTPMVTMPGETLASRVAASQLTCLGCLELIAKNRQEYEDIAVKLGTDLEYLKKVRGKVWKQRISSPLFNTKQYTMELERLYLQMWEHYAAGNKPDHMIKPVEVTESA
Sequence | enrichment fold change
DAPWHKTHHMLPYSH | 5.05
FSPYRHFQHSHSSTD | 2.54
EIPTVDFHPMYMIKI | 2.71
THMHFTDHVNHETHL | 3.08
NVAQTHMHHHLLHEV | 9.1
HGRDTYMEKGHYHF | 3.81
RTFFPMYEIVIGMT | 2.65
QHQHHQIITHYVDVA | 2.69

Further values, each from its own experiment
SMILES | target | test | conditions | measurement | value
CNC(=O)c1ccc(-c2cnn3ccc(C(=O)N(C)c4ccc(Cl)c(C(=O)OC)c4)cc23)cc1 | MAPKAPK5 (Homo sapiens, UniProt Q8IW41) | enzyme activity, inhibitor |  | IC50 | > 30 µM
Cn1cncc1[C@](O)(COc1ccc(C#N)cc1-c1ccc(OC(F)(F)F)cc1)c1ccc(C#N)cc1 | GRK1 (Homo sapiens, UniProt Q15835) | cell-free assay, competition with immobilised ligand | 1 µM | remaining binding | 95%

Repeated from above (series 2):
Sequence | enrichment fold change
RTFFPMYEIVIGMT | 2.65
QHQHHQIITHYVDVA | 2.69
